{"data": "Measured values collected from several papers", "note": "± marks the error that the study gave."}
{"SMILES": "CCCCCCCCCCCCCCC[C@H](O)[C@@H](N)CO", "test system": "human, phase I, plasma", "setting": "intravenous, 840 mg/m^2, day 1, monotherapy", "endpoint": "AUC", "result": "110 µM·h"}
{"SMILES": "CC(C)c1nc(N(C)S(C)(=O)=O)nc(-c2ccc(F)cc2)c1/C=C/[C@@H](O)C[C@@H](O)CC(=O)O", "test system": "human, plasma", "setting": "oral, dose not given, with: finerenone dosed 4.25 h after", "how to read": "reference: with over without finerenone", "endpoint": "AUC ratio", "result": "105%"}
{"SMILES": "O=c1[nH]cc(F)c(=O)[nH]1", "test system": "human, plasma", "setting": "intravenous, 2400 mg/m^2 maintenance, cycle 1 without vorinostat, twice-daily cohort", "endpoint": "AUC", "result": "21800 ± 9680 ng·h/mL"}
{"SMILES": "Cc1[nH]c(/C=C2\\C(=O)Nc3ccccc32)c(C)c1CCC(=O)O", "test": "HPLC-UV", "test system": "human, plasma", "setting": "oral, 500 mg/m^2 twice daily, day 28", "endpoint": "AUC", "result": "61200 ng·h/mL"}
{"SMILES": "COc1cc(Nc2ncc3c(n2)-c2ccc(Cl)cc2C(c2c(F)cccc2OC)=NC3)ccc1C(=O)O", "test system": "human, phase I", "setting": "oral, 40 mg, 0 to 8 h, estimated by accumulation", "endpoint": "AUC steady state", "result": "7480 ± 4460 ng·h/mL"}
{"SMILES": "COc1cc(Nc2ncc3c(n2)-c2ccc(Cl)cc2C(c2c(F)cccc2OC)=NC3)ccc1C(=O)O", "test system": "human, plasma", "setting": "oral, 40 mg twice daily, day 7, steady state geometric mean", "endpoint": "AUC dosing interval", "result": "13.7 µM·h"}
{"SMILES": "CCOc1ccc(Cc2cc([C@]34OC[C@](CO)(O3)[C@@H](O)[C@H](O)[C@H]4O)ccc2Cl)cc1", "test system": "human, type 2 diabetes, moderate renal impairment, plasma", "setting": "oral, 15 mg", "endpoint": "AUC", "result": "2080 ng·h/mL"}
{"SMILES": "CCOc1ccc(Cc2cc([C@]34OC[C@](CO)(O3)[C@@H](O)[C@H](O)[C@H]4O)ccc2Cl)cc1", "test": "pooled meta-analysis", "test system": "human, plasma", "setting": "oral, dose not given, with: light meal", "how to read": "reference: fasted", "endpoint": "AUC dose-proportionality slope fold change", "result": 0.896}
{"SMILES": "CNCc1ccc(-c2[nH]c3cc(F)cc4c3c2CCNC4=O)cc1", "test system": "human patients", "setting": "oral, 400 mg twice daily, day 1, mean, with: bevacizumab", "endpoint": "AUC at steady state", "result": "15500 ± 800 ng·h/mL"}
{"SMILES": "CCCCCCOC(=O)NC(=N)c1ccc(NCc2nc3cc(C(=O)N(CCC(=O)OCC)c4ccccn4)ccc3n2C)cc1", "test system": "human", "setting": "oral, 75 mg, dabigatran free and total, with: cilofexor multiple dose", "how to read": "reference: cpd alone", "endpoint": "AUC and Cmax", "result": "no effect"}
{"SMILES": "CO[C@H]1C[C@@H]2CC[C@@H](C)[C@@](O)(O2)C(=O)C(=O)N2CCCC[C@H]2C(=O)O[C@H]([C@H](C)C[C@@H]2CC[C@@H](O)[C@H](OC)C2)CC(=O)[C@H](C)/C=C(\\C)[C@@H](O)[C@@H](OC)C(=O)[C@H](C)C[C@H](C)/C=C/C=C/C=C/1C", "test system": "human, whole blood", "setting": "oral, 10 mg, mean", "endpoint": "AUC", "result": "615 ng·h/mL"}
{"SMILES": "COc1cc2nccc(Oc3ccc(NC(=O)C4(C(=O)Nc5ccc(F)cc5)CC4)cc3)c2cc1OC", "test": "population PK model", "test system": "human, metastatic renal cell carcinoma, plasma", "setting": "oral, dose not given", "endpoint": "AUC", "result": "18000 ng·h/mL"}
{"SMILES": "CC(C)c1nc(CN(C)C(=O)N[C@H](C(=O)N[C@@H](Cc2ccccc2)C[C@H](O)[C@H](Cc2ccccc2)NC(=O)OCc2cncs2)C(C)C)cs1", "test system": "human, plasma", "setting": "oral, 400 mg twice daily", "endpoint": "AUC", "result": "83 µM·h"}
{"SMILES": "COc1ccc(-c2ccc3c(N4CCOC[C@@H]4C)nc(N4CCOC[C@@H]4C)nc3n2)cc1CO", "test system": "human, plasma", "setting": "oral, 20 mg twice daily, oral solution", "endpoint": "AUC at steady state", "result": "47 to 74.6 ng·h/mL"}
{"note": "Excerpt of the above:"}
{"SMILES": "CC(C)c1nc(N(C)S(C)(=O)=O)nc(-c2ccc(F)cc2)c1/C=C/[C@@H](O)C[C@@H](O)CC(=O)O", "test system": "human, plasma", "setting": "oral, dose not given, with: finerenone dosed 4.25 h after", "how to read": "reference: with over without finerenone", "endpoint": "AUC ratio", "result": "105%"}
{"SMILES": "CNCc1ccc(-c2[nH]c3cc(F)cc4c3c2CCNC4=O)cc1", "test system": "human patients", "setting": "oral, 400 mg twice daily, day 1, mean, with: bevacizumab", "endpoint": "AUC at steady state", "result": "15500 ± 800 ng·h/mL"}
